Measured values pooled from the literature.
Numbered parts are unrelated; each lists some results of a single study. Changes are numbered by the printed parent chain.

Sample 1 — technique: protein binding microarray; form: double-stranded DNA, one strand shown; sample: in vitro; concentration: not given; reference: not given; reading: higher = stronger binding
Target: Histone acetyltransferase KAT6A, winged helix 1, GST fusion (KAT6A, Homo sapiens, UniProt Q92794, residues 1-85)
Notes: 8-mer, flanks averaged, mean of 2 arrays, mostly near background
Target sequence (chain): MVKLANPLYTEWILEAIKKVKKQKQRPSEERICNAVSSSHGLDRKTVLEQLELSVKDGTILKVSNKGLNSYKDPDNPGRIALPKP
| Strand | E-score |
| --- | --- |
| AATTAGGT | -0.118 |
| CAGACCCG | 0.343 |
| AATTGAGT | -0.153 |
| AGGGTCGG | 0.127 |
| AACTCATC | -0.0328 |
| GCCTGGTA | -0.297 |
| AGGTCCGC | 0.224 |
| AAGTGCCT | -0.254 |

Sample 2 — target: CCNA2, cyclin fold, Cln2 fusion (human); technique: yeast growth competition, sequencing; sample: yeast; notes: strong parent motif; reference: not given; reading: higher = stronger binding
Starting sequence: PKMYT1 docking peptide (human); SFEPRNLLSLFED; partner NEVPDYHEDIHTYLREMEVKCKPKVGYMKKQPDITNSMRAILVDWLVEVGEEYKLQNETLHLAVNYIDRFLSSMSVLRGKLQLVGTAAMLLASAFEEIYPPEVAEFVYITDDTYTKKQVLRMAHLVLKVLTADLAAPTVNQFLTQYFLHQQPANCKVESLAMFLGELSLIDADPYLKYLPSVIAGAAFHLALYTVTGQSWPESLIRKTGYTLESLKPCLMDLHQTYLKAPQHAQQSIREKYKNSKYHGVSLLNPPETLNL
| Variant | normalised enrichment score |
| --- | --- |
| F2H | 0.649 |
| P4D | -0.68 |
| P4F | -0.738 |
| E12P | 0.678 |
| S9H | 2.4 |
| E3C | 3.44 |
| F2Q | 0.447 |
| E3Y | 4.27 |

Sample 3 — technique: protein-binding microarray; form: double-stranded DNA, one strand shown; sample: in vitro; concentration: 250 nM; notes: 60-bp whole probe; added: salmon DNA 0.4 mg/ml; reference: random background probes; reading: higher = stronger binding; all sequences stand within: GCCTAGCAC … GTCTTGATTCGCTTGACGCTGCTG
Target: Interferon regulatory factor 5, full length, phosphomimetic (IRF5, Homo sapiens, UniProt Q13568-2, residues 1-514, K96S/S451D/S453D/S456D/S462D)
| Strand | log fluorescence [z-score] |
| --- | --- |
| CTCCTAATAAATATGAGACTGTGCTAG | -0.0434 |
| GACGGTCTCGTACTGCTGACGTGCTAG | -0.0303 |
| TCAAATTGTCTTTTCACACTGTGCTAG | 0.836 |
| TTAGGACTGCTTTTCCTTTCGTGCTAG | 1.25 |
| GACGATATCGGGACTGTAGACGTGCTA | 1.02 |
| GACGGTCTCGGTATCGGCACGTGCTAG | 1.5 |
| TCACATCTGCAAGATCCAACTGTGCTA | 0.055 |
| TCAGGTGTTCTTTTCTGACTGTGCTAG | 0.326 |

Further values, each from its own experiment
| Sequence | target | test | test system | how to read | endpoint | result |
| --- | --- | --- | --- | --- | --- | --- |
| KVVPRRKAK | HLA class I histocompatibility antigen, A alpha chain, allele A*80:01 (Homo sapiens, UniProt P04439) | peptide-MHC binding | peptide | direction not given | z-score of log IC50 | 0.38 |

For quick reference, copied from above (sample 3):
| Strand | log fluorescence [z-score] |
| --- | --- |
| GACGGTCTCGGTATCGGCACGTGCTAG | 1.5 |
